{"data": "Published values of several laboratories", "note": "A part holds a random share of what one study measured."}
{"data": "Sample 1", "target": "Centromere-binding protein 1, full length, His-tagged (CBF1, Saccharomyces cerevisiae, UniProt P17106, residues 1-351)", "method": "competition protein-binding microarray", "form": "double-stranded DNA, one strand shown", "medium": "in vitro", "concentration": "2 µM", "notes": "whole 60-bp probe, lowest competitor level", "together with": "Pho4 competitor, 0.05 µM", "reading": "higher = stronger binding", "chain of UniProt P17106 (whole entry, looked up)": "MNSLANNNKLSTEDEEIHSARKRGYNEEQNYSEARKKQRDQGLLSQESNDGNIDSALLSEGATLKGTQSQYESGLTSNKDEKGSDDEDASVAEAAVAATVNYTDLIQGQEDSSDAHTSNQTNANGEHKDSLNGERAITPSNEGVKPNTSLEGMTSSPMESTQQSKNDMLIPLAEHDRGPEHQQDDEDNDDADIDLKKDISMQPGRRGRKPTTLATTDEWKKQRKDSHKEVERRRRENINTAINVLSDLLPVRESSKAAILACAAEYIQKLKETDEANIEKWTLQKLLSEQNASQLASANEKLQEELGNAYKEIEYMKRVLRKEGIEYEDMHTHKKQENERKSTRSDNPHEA"}
{"Oligonucleotide": "GGCCACCAAAGTCCACACGTTGCGCTTGCCTTTTTGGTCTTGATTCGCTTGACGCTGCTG", "fluorescence intensity [a.u.]": 74}
{"Oligonucleotide": "AAATTACTAAGTTGAAAAGTGGGTGACGCCGTATGAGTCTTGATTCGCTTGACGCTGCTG", "fluorescence intensity [a.u.]": 79}
{"Oligonucleotide": "CAGCAACTTAGTTTGCACGTGGCCGTCCTCTGTGTGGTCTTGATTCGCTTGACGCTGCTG", "fluorescence intensity [a.u.]": 1420}
{"Oligonucleotide": "CGTCCTAGTGATTGCAATGTGGGTGCCATGAGGAAGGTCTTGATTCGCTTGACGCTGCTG", "fluorescence intensity [a.u.]": 104}
{"Oligonucleotide": "GGCTCTGCCGAGTTCCAGGTGACGCTGGTGGTACGAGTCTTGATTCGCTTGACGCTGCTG", "fluorescence intensity [a.u.]": 60.7}
{"Oligonucleotide": "CGTCCTAGTGATTGGGACGTGGGTGCCATGAGGAAGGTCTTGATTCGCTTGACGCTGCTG", "fluorescence intensity [a.u.]": 74.6}
{"Oligonucleotide": "TTAATATTATACGAAAACGTGCAAAACGGCACAAACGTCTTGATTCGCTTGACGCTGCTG", "fluorescence intensity [a.u.]": 203}
{"Oligonucleotide": "CTAACGAAGGTTTGCGGAGTGGGTGACAAGCCAAGTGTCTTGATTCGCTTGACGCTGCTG", "fluorescence intensity [a.u.]": 67.8}
{"data": "Sample 2", "target": "Sal-like protein 4, full length isoform B (SALL4, Homo sapiens, UniProt Q9UJQ4-2, residues 1-616)", "method": "universal PBM", "form": "double-stranded DNA, one strand shown", "medium": "in vitro", "concentration": "not given", "notes": "8-mer, flanks averaged, mean of replicates", "reading": "higher = stronger binding", "Construct (chain)": "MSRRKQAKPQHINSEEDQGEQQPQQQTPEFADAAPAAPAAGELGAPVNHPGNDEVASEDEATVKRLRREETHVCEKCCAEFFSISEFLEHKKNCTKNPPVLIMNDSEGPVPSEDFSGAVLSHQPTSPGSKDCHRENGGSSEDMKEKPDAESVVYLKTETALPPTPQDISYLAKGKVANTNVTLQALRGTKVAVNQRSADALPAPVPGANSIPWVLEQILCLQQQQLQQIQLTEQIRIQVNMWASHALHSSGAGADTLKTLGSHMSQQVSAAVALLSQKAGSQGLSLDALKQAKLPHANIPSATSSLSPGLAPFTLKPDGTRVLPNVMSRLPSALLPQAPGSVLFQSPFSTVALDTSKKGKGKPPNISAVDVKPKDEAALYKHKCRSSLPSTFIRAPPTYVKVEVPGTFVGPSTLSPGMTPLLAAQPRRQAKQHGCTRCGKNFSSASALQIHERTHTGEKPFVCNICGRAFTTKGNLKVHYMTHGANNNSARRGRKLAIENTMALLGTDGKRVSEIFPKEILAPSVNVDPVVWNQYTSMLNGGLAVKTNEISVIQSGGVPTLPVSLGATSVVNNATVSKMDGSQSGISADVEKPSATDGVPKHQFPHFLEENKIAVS"}
{"Oligonucleotide": "CTCAAGAG", "E-score": -0.153}
{"Oligonucleotide": "CGTCCACC", "E-score": -0.286}
{"Oligonucleotide": "CTACCCGC", "E-score": -0.271}
{"Oligonucleotide": "GAGCGTTA", "E-score": -0.037}
{"Oligonucleotide": "AGCGGTCA", "E-score": -0.14}
{"Oligonucleotide": "CGGATGGC", "E-score": -0.151}
{"Oligonucleotide": "CAGTGTAC", "E-score": -0.0833}
{"Oligonucleotide": "GGACCAGA", "E-score": -0.188}
{"data": "Sample 3", "target": "Replicase polyprotein 1ab, nsp13 helicase (rep, Severe acute respiratory syndrome coronavirus 2, UniProt P0DTD1)", "mode": "inhibitor", "concentration": "20 µM"}
{"SMILES": "O=c1[nH]ccc2cc(OC3CCNCC3)ccc12", "inhibition [%]": 5.7}
{"SMILES": "N[C@H](C(=O)O)c1ccc(O)c(C(=O)O)c1", "inhibition [%]": 2.87}
{"SMILES": "CC(=O)c1cc([N+](=O)[O-])c(Sc2cccc(Cl)c2Cl)s1", "inhibition [%]": -0.21}
{"SMILES": "O=[N+]([O-])/N=C1\\NCCN1Cc1ccc(Cl)nc1", "inhibition [%]": -6.08}
{"SMILES": "Cc1sc2c(c1C)C(c1ccc(Cl)cc1)=N[C@@H](CC(=O)Nc1ccc(OCCOCCOCCOCCNc3cccc4c3C(=O)N(C3CCC(=O)NC3=O)C4=O)cc1)c1nnc(C)n1-2 (stereo partly shown)", "inhibition [%]": 7.45}
{"SMILES": "CC1(C)S[C@@H]2[C@H](NC(=O)C(C(=O)O)c3ccccc3)C(=O)N2[C@H]1C(=O)O (stereo partly shown)", "inhibition [%]": 1.94}
{"SMILES": "COc1ccc([C@H]2CNC(=O)C2)cc1OC1CCCC1", "inhibition [%]": -0.56}
{"SMILES": "O=[N+]([O-])c1cc(Cl)ccc1S(=O)(=O)c1ccccc1", "inhibition [%]": 0.3}
{"SMILES": "NC(=O)c1nc(Nc2ccccc2)sc1NC(=O)C1CCCCC1", "inhibition [%]": 2.65}
{"SMILES": "CO/N=C(\\C(=O)N[C@@H]1C(=O)N2C(C(=O)O)=C(CSC(=O)c3ccco3)CS[C@H]12)c1csc(N)n1", "inhibition [%]": 74.4}
{"SMILES": "C[C@H]1O[C@@H](O[C@H]2CC[C@@]3(C)[C@H](CC[C@@H]4[C@@H]3C[C@@H](O)[C@]3(C)[C@@H](C5=CC(=O)OC5)CC[C@]43O)C2)C[C@H](O)[C@@H]1O[C@H]1C[C@H](O)[C@H](O[C@H]2C[C@H](O)[C@H](O[C@@H]3O[C@H](CO)[C@@H](O)[C@H](O)[C@H]3O)[C@@H](C)O2)[C@@H](C)O1", "inhibition [%]": 0.76}
{"SMILES": "c1ccc(-c2n[nH]c3c2oc2ccccc23)cc1", "inhibition [%]": 5.67}
{"SMILES": "C[C@H](Cc1ccc2c(c1)OC(C(=O)O)(C(=O)O)O2)NC[C@H](O)c1cccc(Cl)c1", "inhibition [%]": 7.09}
{"SMILES": "Cc1cc(-n2c(=O)[nH]c(=O)n(C)c2=O)ccc1Oc1ccc(SC(F)(F)F)cc1", "inhibition [%]": 3.4}
{"SMILES": "CSCC[C@H](NC(=O)[C@H](Cc1ccccc1)NC(=O)CNC(=O)CNC(=O)[C@@H](N)Cc1ccc(O)cc1)C(=O)O", "inhibition [%]": -3.07}
{"SMILES": "CCOc1ccccc1C(=O)O", "inhibition [%]": 5.77}
{"SMILES": "CC(C)C[C@@H](NC(=O)[C@H](Cc1ccccc1)NC(=O)CNC(=O)[C@@H](C)NC(=O)[C@@H](N)Cc1ccc(O)cc1)C(=O)O", "inhibition [%]": -1.31}
{"SMILES": "N#Cc1c[nH]c2c(C(=O)N3CCN(CCc4ccc(F)cc4)CC3)cccc12", "inhibition [%]": 6.2}
{"SMILES": "CCC(=O)NC[C@H](Cc1ccc(OCCc2nc(-c3ccccc3)oc2C)cc1)N/C(C)=C\\C(=O)c1ccc(C(F)(F)F)cc1", "inhibition [%]": 2.81}
{"SMILES": "O=C1c2ccccc2CCC1CNCCc1ccc(O)cc1 (stereo not shown)", "inhibition [%]": 7.81}
{"SMILES": "NS(=O)(=O)c1cc2c(cc1Cl)NC(CC1CCCC1)NS2(=O)=O (stereo not shown)", "inhibition [%]": 3.05}
{"SMILES": "CCC(C/C=C/c1ccccc1)(c1ccccc1)N(C)CC1CC1 (stereo not shown)", "inhibition [%]": 9.36}
{"SMILES": "N#Cc1cccc(-c2nc(-c3cccnc3)no2)c1", "inhibition [%]": 1.64}
{"SMILES": "CN[C@@H]1C[C@@H](c2ccc(Cl)c(Cl)c2)c2ccccc21", "inhibition [%]": 7.73}
{"SMILES": "CC(=O)Nc1nc(C)c(-c2ccc(Cl)c(S(=O)(=O)NCCO)c2)s1", "inhibition [%]": 3.28}
{"data": "Sample 4", "cell line": "HEK-293T/ACE2", "concentration": "concentration not given", "relative to": "vehicle"}
{"Substance": "Tyloxapol", "nuclei number [%]": 98.6}
{"Substance": "bleomycin sulfate", "nuclei number [%]": 93.8}
{"Substance": "Aprotinin", "nuclei number [%]": 93}
{"data": "Sample 5", "target": "RING finger protein unkempt homolog, zinc fingers 1-6, GST-SBP tag (UNK, Homo sapiens, UniProt Q9C0B0, residues 30-357)", "method": "RNA Bind-n-Seq", "form": "RNA", "medium": "in vitro", "concentration": "not given", "notes": "RNA with constant flanks, human-mouse chimeric sites, ends assumed", "relative to": "input RNA pool", "reading": "higher = stronger binding", "Target sequence (chain)": "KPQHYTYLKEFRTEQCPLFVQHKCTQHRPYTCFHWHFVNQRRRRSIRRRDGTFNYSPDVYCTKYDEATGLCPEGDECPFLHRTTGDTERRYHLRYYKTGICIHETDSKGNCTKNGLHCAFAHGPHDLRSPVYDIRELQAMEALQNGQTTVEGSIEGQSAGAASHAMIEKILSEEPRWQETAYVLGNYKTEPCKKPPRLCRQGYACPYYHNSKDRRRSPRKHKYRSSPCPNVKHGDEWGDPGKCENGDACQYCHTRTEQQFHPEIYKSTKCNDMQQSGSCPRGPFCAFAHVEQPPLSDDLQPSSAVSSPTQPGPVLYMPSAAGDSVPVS"}
{"Oligonucleotide": "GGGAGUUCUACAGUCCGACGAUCGGCCUGGGACCGUCCUGGCUAGUGCAAAAUAGCGGCAUGGAGGCUCAGAGAGGAAAGUUUGUUAGUGGAGGCAGUGGUAGAGGCCGUCAUGUACGGUCCUUUACUCGAUAGAUGUGUUCUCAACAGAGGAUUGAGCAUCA", "bound/input enrichment [ratio]": 0.627}
{"Oligonucleotide": "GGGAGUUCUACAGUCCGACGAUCUAACCACAUCAAGAUGGUUGGGAAGCUGAAGCAGAACUUACUCUUGGCAUGUCUGGUGAUUAGUUCUGUGACCGUGUUUUACCUGGGCCAGCAUGCCAUGGAAUGCCAUCACCGAAUAGACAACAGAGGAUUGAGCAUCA", "bound/input enrichment [ratio]": 0.149}
{"Oligonucleotide": "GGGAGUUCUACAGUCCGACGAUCCUAGCAGUCCAGCAGCUAGAAGGAGCCAAUUGUUUGUCACUCCACACACAGGGAAGGCGAUAACAUUGUACAUUGGUUUACAUUUUUUCCCCCUGUGGAUUUUUCUAGAGGUCAUAGUGCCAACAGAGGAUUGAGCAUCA", "bound/input enrichment [ratio]": 0.577}
{"Oligonucleotide": "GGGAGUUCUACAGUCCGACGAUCUACUACUGAAUCUGUGAUAUUGGCAAUUAUUAUUAUGGCCAGGGUCAUCCCAUGAAGCCUCAUAGAAUCCGGAUGACUCAUAACUUGCUGCUAAAUUAUGGUUUAUACAGAAAAAUGGAACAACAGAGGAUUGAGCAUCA", "bound/input enrichment [ratio]": 0.242}
{"Oligonucleotide": "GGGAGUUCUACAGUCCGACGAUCAAUAGAGGAUCCACCUCCCAAAGUGCUGGGAGUAAAGGUGUGGCCACUCAAUUCUCCUUGAUGGAUAUAUAUUUUUUUUAAUAUGAAUCUUCCUGUUCGUCCAGGGAAGAAAGAUUUGUUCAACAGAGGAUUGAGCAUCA", "bound/input enrichment [ratio]": 0.782}
{"Oligonucleotide": "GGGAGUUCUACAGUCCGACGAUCGAUAAGAAAAGCUUGUUGGAGACCCGCUUGCAUGUCACUGGUAGAGACCUGAGGUGUAAAAUAGCUGAAACUUUCGGACUUCAAGAAAAUUACAUCAAGAUCGUAAUAAAUAAGAAACAGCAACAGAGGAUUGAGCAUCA", "bound/input enrichment [ratio]": 0.338}
{"Oligonucleotide": "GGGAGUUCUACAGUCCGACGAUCGUUGCCAGGUUCCGGUGCCGUUGGGCUCGGUUCUCUCCUGAGCUACGUGUCUCUACGCUCUCAAUCCGCCAUCCAACAAACAUGGAUCAGGUAAUGCAGUUUGUGGAUGAGCCAAGUCAGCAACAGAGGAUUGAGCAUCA", "bound/input enrichment [ratio]": 0.0316}
{"Oligonucleotide": "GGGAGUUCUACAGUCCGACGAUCCACACACUCUUCUGCGGGACCCUCAUCUUGCAGGCCCGGGCCUAUGUGGGACCGCACGUCCUGGCAGUGGUGACUCGCACAGGGUUCUGCACGGCAAAAGGGGGCCUGGUGAGCUCCAUCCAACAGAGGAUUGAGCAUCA", "bound/input enrichment [ratio]": 0.117}
{"data": "Sample 6", "target": "Replicase polyprotein 1ab, main protease (rep, Severe acute respiratory syndrome coronavirus 2, UniProt P0DTD1)", "observed": "enzyme activity", "mode": "inhibitor", "concentration": "20 µM", "notes": "hit confirmation, no DTT"}
{"Compound": "c1ccc2sc(SSc3nc4ccccc4s3)nc2c1", "inhibition [%]": 109}
{"Compound": "C=C1c2cccc(O)c2C(=O)C2=C(O)[C@]3(O)C(=O)C(C(N)=O)=C(O)[C@@H](N(C)C)[C@@H]3[C@@H](O)[C@H]12", "inhibition [%]": 91}
{"Compound": "CC(C)c1cc(CNc2nc(Nc3cc(C4CC4)[nH]n3)cc(N3CCN(C)CC3)n2)on1", "inhibition [%]": 99.2}
{"note": "For quick reference, copied from above (sample 3):"}
{"SMILES": "c1ccc(-c2n[nH]c3c2oc2ccccc23)cc1", "inhibition [%]": 5.67}
{"SMILES": "C[C@H](Cc1ccc2c(c1)OC(C(=O)O)(C(=O)O)O2)NC[C@H](O)c1cccc(Cl)c1", "inhibition [%]": 7.09}
{"SMILES": "Cc1cc(-n2c(=O)[nH]c(=O)n(C)c2=O)ccc1Oc1ccc(SC(F)(F)F)cc1", "inhibition [%]": 3.4}
